Measurements gathered from unrelated publications.
Numbered parts are unrelated; each lists some results of a single study. Positions count from the first letter of the parent shown.

Study 1
Target: RING finger protein unkempt homolog, zinc fingers 1-6, GST-SBP tag (UNK, Homo sapiens, UniProt Q9C0B0, residues 30-357)
Method: RNA Bind-n-Seq
Form: RNA
Medium: in vitro
Tested at: not given
Notes: RNA with constant flanks, human and mouse sites, ends assumed
Reference: input RNA pool
Direction: higher = stronger binding
All sequences stand within: GGGAGUUCUACAGUCCGACGAUC … CAACAGAGGAUUGAGCAUCA
Target sequence (chain): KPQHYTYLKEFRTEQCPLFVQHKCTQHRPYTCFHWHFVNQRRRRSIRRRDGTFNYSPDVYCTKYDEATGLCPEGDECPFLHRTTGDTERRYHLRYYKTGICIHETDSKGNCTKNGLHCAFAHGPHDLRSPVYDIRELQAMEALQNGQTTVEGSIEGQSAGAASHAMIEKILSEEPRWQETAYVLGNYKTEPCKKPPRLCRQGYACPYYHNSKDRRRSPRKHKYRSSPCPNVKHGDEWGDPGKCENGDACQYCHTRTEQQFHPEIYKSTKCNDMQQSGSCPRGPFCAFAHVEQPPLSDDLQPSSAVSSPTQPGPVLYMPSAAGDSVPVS
Strand | bound/input enrichment [ratio]
AGGCAUGAGCUCUUGGCAGGAGUGGGCUCUGAGCAGUUGUUAUAUUCAUUCUUUAUAAACCAUAAAAUAAAUAAUCUCAUCCCCAAACUGUAGUAAUUGUUACAAUUUUCUAUUUAAAAA | 2.82
ACAUCUUAUGAAAUGCUUAUUAAAGAGAAGUCUGUGUUCAAAAAAUUUAAUUGGAGAUACUUAGUAAUAGAUGAAGCUCACAGGAUCAAAAAUGAAAAAUCUAAGUUGUCAGAAAUAGUG | 4.37
GGGGCUGCUGAGAUAUCCUGUGCCCUGGCAGUUAGCCAAGAGGCGGAUAAGUGCCCCACCUUAGAACAGUAUGCCAUGAGAGCGUUUGCCGACGCACUGGAGGUCAUCCCCAUGGCCCUC | 0.642
UCUGACGGCCGCUCCUACUCCAGCAUCUGCGCGCUACGUCUGCGCGCCCGACAUGCACCCCGCGCGCACCAUGGCCACCUGCACAAGGCUCGCGAUGGGCCCUGCGAGUUCGCUCCCGUG | 0.0496
AACCGUUAACAUCACUGCUGUGGCCUCAUACUCUUUUUUCCAUUUUCUACAAGAAGCCUUUUAGUAUAUGAAAAUUAUUACUCUUUUUGGGGUUUAAAGAAAUGGUCUGCAUAACCUGAA | 1.63
ACCUUUGAUUUCAAAGGCGUGAUUGACUACAUUUUCUAUUCCAAGACUCAUAUGAACGUGCUUGGUGUCCUGGGGCCUUUAGAUCCUCAAUGGCUGGUUGAGAACAACAUCACUGGGUGU | 0.206
UCCCCCUUCCCAGCUUCCCAGGCAUUGCCCAGCUACCCCCACUCUUUCCCUCCCCCAACAAGCCUCUCUGUCUCCAAUCAGCCCCCCAAGUAUACUCAGCCUUCUCUCCCAUCCCAGGCU | 1.32
AAUUUUAUACAUUCCAGAUAGAGAGGCAGGCUUAAAGUCUUUUUAAAACAAUAUUUUUUGUAUUUAAGUAAUUGCAGUUAUCUGGGAUUUUUUUUUCUUUUUUUUGGUCAGAAUUCUGAA | 1.14

Study 2
Target: ABI1, truncated, D143A, DHFR fusion (Arabidopsis thaliana)
Method: DHFR PCA, deep sequencing
Medium: yeast
Notes: methotrexate growth selection, single substitutions
With: (+)-ABA 0 µM
Reference: wild-type fitted maximum
Direction: higher = stronger binding
Starting sequence: PYL1, truncated, DHFR fusion (Arabidopsis thaliana); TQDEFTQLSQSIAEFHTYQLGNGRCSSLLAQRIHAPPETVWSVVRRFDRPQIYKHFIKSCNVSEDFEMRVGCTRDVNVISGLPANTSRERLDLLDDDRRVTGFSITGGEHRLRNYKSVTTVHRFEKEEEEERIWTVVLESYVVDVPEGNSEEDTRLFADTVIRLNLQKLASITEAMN
Substitution | relative binding score
I52L | 39.8%
T135C | 6%
L156A | 5.63%
S104P | 2.31%
N177M | 34%
S11W | 12.5%
S171G | 2.56%
V161S | 13%
T154I | 22.8%
N85E | 36%
E131F | 11.9%
F103D | -1.23%
G21D | 20.3%
E139K | 13.4%
V145S | -9.47%

Study 3
Target: CCNB3, cyclin fold, Cln2 fusion (human)
Method: yeast growth competition, sequencing
Medium: yeast
Notes: weak parent motif
Reference: not given
Direction: higher = stronger binding
Starting sequence: EXO1 docking peptide (human); KPECGRVQRAIFQ
Substitution | normalised enrichment score
P2A | 0.179
R9A | -0.152
E3A | 0.236
F12A | 0.247
G5A | -0.156
K1A | -0.184

Study 4
Target: UBE2H UBC core domain (UniProt P62256)
Chain of UniProt P62256 (whole entry, looked up): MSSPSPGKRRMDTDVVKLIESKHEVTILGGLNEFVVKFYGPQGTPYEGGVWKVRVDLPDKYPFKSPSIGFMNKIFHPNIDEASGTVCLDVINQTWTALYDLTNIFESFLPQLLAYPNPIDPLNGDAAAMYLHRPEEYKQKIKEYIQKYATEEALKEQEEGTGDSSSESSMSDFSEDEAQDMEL
Method: yeast two-hybrid
Medium: yeast
Notes: mostly zero background
Reference: not given
Direction: higher = stronger interaction
B1: TRIM37 RING domain (UniProt O94972); chain SVESIAEVFRCFICMEKLRDARLCPHCSKLCCFSCIRRWLTEQRAQCPHCRAPLQLRELVN
B2: TRIM31 RING domain (UniProt Q9BZY9); chain FVNKLQEEVICPICLDILQKPVTIDCGHNFCLKCITQIGETSCGFFKCPLCKTSVRKNAIRF
B3: RNF31 RING domain (UniProt Q96EP0); chain AFLRRLLAQECAVCGWALPHNRMQALTSCECTICPDCFRQHFTIALKEKHITDMVCPACGRPDLTDDTQLL
B4: TRIM26 RING domain (UniProt Q12899); chain PLRSLEEEVTCSICLDYLRDPVTIDCGHVFCRSCTTDVRPISGSRPVCPLCKKPFKKENIRP
B5: RNF122 RING domain (UniProt Q9H9V4); chain AKKLQLYGQTCAVCLEDFKGKDELGVLPCQHAFHRKCLVKWLEVRCVCPMCNKPIASPSEAT
B6: RNF2 RING domain (UniProt Q99496); chain SPRSLHSELMCPICLDMLKNTMTTKECLHRFCADCIITALRSGNKECPTCRKKLVSKRSLR
B7: TRIM22 RING domain (UniProt Q8IYM9); chain VKVDIEKEVTCPICLELLTEPLSLDCGHSFCQACITAKIKESVIISRGESSCPVCQTRFQPGNLRP
B8: RNF152 RING domain (UniProt Q8N8N0); chain ETLSQDSLLECQICFNYYSPRRRPKLLDCKHTCCSVCLQQMRTSQKDVRCPWCRGVTKLPPGFS
B9: RNF166 RING domain (UniProt Q96A37); chain GDSGLEAQYTCPICLEVYHRPVAIGSCGHTFCGECLQPCLQVPSPLCPLCRLPFDPKKVDK
B10: MEX3B RING domain (UniProt Q6ZN04); chain SGLRRKGSRDCSVCFESEVIAALVPCGHNLFCMECANRICEKSEPECPVCHTAVTQAIRIF
B11: MYCBP2 RING domain (UniProt O75592); chain TSLKQDADDMCMICFTEALSAAPAIQLDCSHIFHLQCCRRVLENRWLGPRITFGFISCPICKNKINHIVLKD
Molecule | lacZ reporter activity
B1 (TRIM37 RING domain) | 0
FVKTVEDKYKCEKCHLVLCSPKQTECGHRFCESCMAALLSSSSPKCTACQESIVKDKVF (TRAF3 RING domain (UniProt Q13114)) | 0
B2 (TRIM31 RING domain) | 0
B3 (RNF31 RING domain) | 0
B4 (TRIM26 RING domain) | 0
B5 (RNF122 RING domain) | 0
B6 (RNF2 RING domain) | 0
RYRQMEERITCPICIDSHIRLVFQCGHGACAPCGSALSACPICRQPIRDRIQIF (MIB2 RING domain (UniProt Q96AX9)) | 0
B7 (TRIM22 RING domain) | 0
B8 (RNF152 RING domain) | 0
B9 (RNF166 RING domain) | 0
B10 (MEX3B RING domain) | 0
QVQSRTKIEECVVCSDKKAAVLFQPCGHMCACENCANLMKKCVQCRAVVERRVPFI (MIB1 RING domain (UniProt Q86YT6)) | 0
B11 (MYCBP2 RING domain) | 0
